Published values pooled from the literature.
Technique: steady-state kinetics
B1: enzyme (Thermus thermophilus, UniProt Q72J81); chain MEVKRIGVVGAGQMGSGIAQVAASAGYEVVLVDVAESFLERGLAAIRRSLGKFLEKGKITQEAHDEALGRIRTSLSLEDLKDADLIVEAIVEDEGEKRRLFERLGALAKPEAILASNTSSIPITALARYSGRPERFIGMHFFNPVPLMQLVEVIRGELTSEATRDVVVEVARRMGKTPLEVQDYPGFISNRLLMPMINEAIEALREGVATKEAIDGIMRLGMNHPMGPLELADFIGLDTCLAIMEVLHRGFGDDKYRPSPLLRRMVQAGLLGRKAGRGFYTYDEKGNKVG
B2: POLK W214Y/W392H/Y50W (Homo sapiens, UniProt Q9UBT6); chain MGLNDNKAGMEGLDKEKINKIIMEATKGSRFWGNELKKEKQVNQRIENMMQQKAQITSQQLRKAQLQVDRFAMELEQSRNLSNTIVHIDMDAFYAAVEMRDNPELKDKPIAVGSMSMLSTSNYHARRFGVRAAMPGFIAKRLCPQLIIVPPNFDKYRAVSKEVKEILADYDPNFMAMSLDEAYLNITKHLEERQNYPEDKRRYFIKMGSSVENDNPGKEVNKLSEHERSISPLLFEESPSDVQPPGDPFQVNFEEQNNPQILQNSVVFGTSAQEVVKEIRFRIEQKTTLTASAGIAPNTMLAKVCSDKNKPNGQYQILPNRQAVMDFIKDLPIRKVSGIGKVTEKMLKALGIITCTELYQQRALLSLLFSETSHHYFLHISLGLGSTHLTRDGERKSMSVERTFSEINKAEEQYSLCQELCSELAQDLQKERLKGRTVTIKLKNVNFEVKTRASTVSSVVSTAEEIFAIAKELLKTEIDADFPHPLRLRLMGVRISSFPNEEDRKHQQ
B3: LYPLA1 (Homo sapiens, UniProt O75608); chain MCGNNMSTPLPAIVPAARKATAAVIFLHGLGDTGHGWAEAFAGIRSSHIKYICPHAPVRPVTLNMNVAMPSWFDIIGLSPDSQEDESGIKQAAENIKALIDQEVKNGIPSNRIILGGFSQGGALSLYTALTTQQKLAGVTALSCWLPLRASFPQGPIGGANRDISILQCHGDCDPLVPLMFGSLTVEKLKTLVNPANVTFKTYEGMMHSSCQQEMMDVKQFIDKLLPPID
B4: GTPBP3 N259A (Homo sapiens, UniProt Q969Y2); chain TRRSSGAPAPGSGATIFALSSGQGRCGIAVIRTSGPASGHALRILTAPRDLPLARHASLRLLSDPRSGEPLDRALVLWFPGPQSFTGEDCVEFHVHGGPAVVSGVLQALGSVPGLRPAEAGEFTRRAFANGKLNLTEVEGLADLIHAETEAQRRQALRQLDGELGHLCRGWAETLTKALAHVEAYIDFGEDDNLEEGVLEQADIEVRALQVALGAHLRDARRGQRLRSGVHVVVTGPPAAGKSSLVNLLSRKPVSIVSPEPGTTRDVLETPVDLAGFPVLLSDTAGLREGVGPVEQEGVRRARERLEQADLILAMLDASDLASPSSCNFLATVVASVGAQSPSDSSQRLLLVLNKSDLLSPEGPGPGPDLPPHLLLSCLTGEGLDGLLEALRKELAAVCGDPSTDPPLLTRARHQHHLQGCLDALGHYKQSKDLALAAEALRVARGHLTRLTGGGGTEEILDIIFQDFCVGK
B5: sacB S173A/S422A (Priestia megaterium, UniProt D5DC07); chain KGNDSKDFNNSYGISHITRDNMVKIPQQQNSDQFKVPAFDESTIKNIASAKGKNASGNTIDLDVWDSWPLQNADGTVATYHGYQIVFALAGDPKDSNDTSVYLFYKKAGDKSIDSWKNAGRVFKDSDKFVPNDPHLKNQTQEWAGSGTLTKDGKVRLFYTDYSGKQYGKQTLTTAQVNMSQPNDNTLKVDGVEDYKSIFDGDGKIYQTVQQFIDEGGYDTGDNHTLRDPHYIEDNGHKYLVFEANTGTEDGYQGEDSLYNRAYYGGNNPFFQSEKKKLLEGSNKEKASLANGALGIIELNDDYTLKKVMKPLITSNTVTDEIERANIFKKDGKWYLFTDSRGSKMTIDGIGQDDVYMLGYVSNTLTGKYKPLNDTGLVLHMDLDPNDKTFTYAHFAVPQTKGDNVVITSYMTNRGFYEDNHSTFAPSFLVNIDGSKTSVVKDRVLEQGQLTVDED
B6: BaiA2 (Clostridium scindens, UniProt P19337); chain MNLVQDKVTIITGGTRGIGFAAAKIFIDNGAKVSIFGETQEEVDTALAQLKELYPEEEVLGFAPDLTSRDAVMAAVGQVAQKYGRLDVMINNAGITSNNVFSRVSEEEFKHIMDINVTGVFNGAWCAYQCMKDAKKGVIINTASVTGIFGSLSGVGYPASKASVIGLTHGLGREIIRKNIRVVGVAPGVVNTDMTNGNPPEIMEGYLKALPMKRMLEPEEIANVYLFLASDLASGITATTVSVDGAYRP
B7: protein (Rheum palmatum, UniProt A0A7L9A2S6); chain MKKTELVFLPAPAPGHLVSTVEFSKRLIARDARLTVTILVISSPFSRGAQTNPSPGIRYVTLPQVDVPQHLMKDSIEHTISVYIASHAPHVRDAVAALQTESTVHVAGLFLDMFCTPMIDVANELGLPSYVFFCSSAGFLGLLLHLPVHSQPRFDETGLDVLIPSFQNPVPTRVLPRFGFNELGYKSFMDHAKRFGETKGIIINTYAELEPYALKSLLDAYDTAPVYAVGPVLDLRSQVHMPCDAAERARIMGWLDKQPDSSVVFLCFGSGGSFSEHQIREISKGLSQSGQRFLWSVRKPPTGGLVKPTEYTETELRSVLGDEFWSLLDEGERGVVCGWAPQVEVLGHKSVGAFVSHCGWNSTLESLWFGKPMVTWPLYAEQQMNAFELVKELGIAVELTLDYRLHSSEVVEAREVERAVRRVMDENNPVRYKVKEMAEVCRATLVEGGSSFVCVDRLISGFLGEIN
B8: pol D141A/E143A (Thermococcus kodakarensis, UniProt P77933); chain 1 MILDTDYITEDGKPVIRIFKKENGEFKIEYDRTFEPYFYALLKDDSAIEEVKKITAERHGTVVTVKRVEKVQKKFLGRPVEVWKLYFTHPQDVPAIRDKIREHPAVIDIYEYDIPFAKRYLIDKGLVPMEGDEELKMLAFAIATLYHEGEEFAEGPILMISYADEEGARVITWKNVDLPYVDVVSTEREMIKRFLRVVKEKDPDVLITYNGDNFDFAYLKKRCEKLGINFALGRDGSEPKIQRMGDRFAVEVKGRIHFDLYPVIRRTINLPTYTLEAVYEAVFGQPKEKVYAEEITTAWETGENLERVARYSMEDAKVTYELGKEFLPMEAQLSRLIGQSLWDVSRSSTGNLVEWFLLRKAYERNELAPNKPDEKELARRRQSYEGGYVKEPERGLWENIVYLDFR; chain 2 SLYPSIIITHNVSPDTLNREGCKEYDVAPQVGHRFCKDFPGFIPSLLGDLLEERQKIKKKMKATIDPIERKLLDYRQRAIKILAN; chain 3 NSYYGYYGYARARWYCKECAESVTAWGREYITMTIKEIEEKYGFKVIYSDTDGFFATIPGADAETVKKKAMEFLKYINAKLPGALELEYEGFYKRGFFVTKKKYAVIDEEGKITTRGLEIVRRDWSEIAKETQARVLEALLKDGDVEKAVRIVKEVTEKLSKYEVPPEKLVIHEQITRDLKDYKATGPHVAVAKRLAARGVKIRPGTVISYIVLKGSGRIGDRAIPFDEFDPTKHKYDAEYYIENQVLPAVERILRAFGYRKEDLRYQKTRQVGLSAWLKPKGT
B9: Paox H64Q (Mus musculus, UniProt Q8C0L6); chain MAFPGPRVLVVGSGIAGLGAAQKLCSHRAAPHLRVLEATASAGGRIRSERCFGGVVELGAHWIQGPSQDNPVFQLAAEFGLLGEKELSEENQLVDTGGHVALPSMIWSSSGTSVSLELMTEMARLFYGLIERTREFLNESETPMASVGEFLKKEISQQVASWTEDDEDTRKRKLAILNTFFNIECCVSGTHSMDLVALAPFGEYTVLPGLDCILAGGYQGLTDRILASLPKDTVAFDKPVKTIHWNGSFQEAAFPGETFPVLVECEDGARLPAHHVIVTVPLGFLKEHQDTFFEPPLPAKKAEAIKKLGFGTNNKIFLEFEEPFWEPDCQFIQVVWEDTSPLQDTALSLQDTWFKKLIGFLVQPSFESSHVLCGFIAGLESEFMETLSDEEVLLSLTQVLRRVTGNPQLPAAKSVRRSQWHSAPYTRGSYSYVAVGSTGDDLDLMAQPLPEDGTGTQLQVLFAGEATHRTFYSTTHGALLSGWREADRLVSLWDSQVEQSRPRL
B10: GNS (Homo sapiens, UniProt P15586); chain VFGVAAGTRRPNVVLLLTDDQDEVLGGMTPLKKTKALIGEMGMTFSSAYVPSALCCPSRASILTGKYPHNHHVVNNTLEGNCSSKSWQKIQEPNTFPAILRSMCGYQTFFAGKYLNEYGAPDAGGLEHVPLGWSYWYALEKNSKYYNYTLSINGKARKHGENYSVDYLTDVLANVSLDFLDYKSNFEPFFMMIATPAPHSPWTAAPQYQKAFQNVFAPRNKNFNIHGTNKHWLIRQAKTPMTNSSIQFLDNAFRKRWQTLLSVDDLVEKLVKRLEFTGELNNTYIFYTSDNGYHTGQFSLPIDKRQLYEFDIKVPLLVRGPGIKPNQTSKMLVANIDLGPTILDIAGYDLNKTQMDGMSLLPILRGASNLTWRSDVLVEYQGEGRNVTDPTCPSLSPGVSQCFPDCVCEDAYNNTYACVRTMSALWNLQYCEFDDQEVFVEVYNLTADPDQITNIAKTIDPELLGKMNYRLMMLQSCSGPTCRTPGVFDPGYRFDPRLMFSNRGSVRTRRFSKHLL
B11: enzyme C48S (Schizosaccharomyces pombe, UniProt Q9Y7P0); chain MFTGLVEAIGVVKDVQGTIDNGFAMKIEAPQILDDCHTGDSIAVNGTSLTVTDFDRYHFTVGIAPESLRLTNLGQCKAGDPVNLERAVLSSTRMGGHFVQGHVDTVAEIVEKKQDGEAIDFTFRPRDPFVLKYIVYKGYIALDGTSLTITHVDDSTFSIMMISYTQSKVIMAKKNVGDLVNVEVDQIGKYTEKLVEAHIADWIKKTQA
Chain of UniProt H6U1I8 (whole entry, looked up): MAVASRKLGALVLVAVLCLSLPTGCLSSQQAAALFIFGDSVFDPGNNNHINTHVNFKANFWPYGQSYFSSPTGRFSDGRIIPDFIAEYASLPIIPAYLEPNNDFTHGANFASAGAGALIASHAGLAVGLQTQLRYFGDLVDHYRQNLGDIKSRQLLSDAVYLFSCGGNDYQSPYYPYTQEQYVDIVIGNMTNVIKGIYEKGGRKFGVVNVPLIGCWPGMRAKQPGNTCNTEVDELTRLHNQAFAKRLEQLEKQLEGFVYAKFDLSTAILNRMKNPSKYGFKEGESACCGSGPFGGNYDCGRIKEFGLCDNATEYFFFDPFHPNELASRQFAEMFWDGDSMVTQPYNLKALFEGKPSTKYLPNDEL
Chain of UniProt Q9H015 (whole entry, looked up): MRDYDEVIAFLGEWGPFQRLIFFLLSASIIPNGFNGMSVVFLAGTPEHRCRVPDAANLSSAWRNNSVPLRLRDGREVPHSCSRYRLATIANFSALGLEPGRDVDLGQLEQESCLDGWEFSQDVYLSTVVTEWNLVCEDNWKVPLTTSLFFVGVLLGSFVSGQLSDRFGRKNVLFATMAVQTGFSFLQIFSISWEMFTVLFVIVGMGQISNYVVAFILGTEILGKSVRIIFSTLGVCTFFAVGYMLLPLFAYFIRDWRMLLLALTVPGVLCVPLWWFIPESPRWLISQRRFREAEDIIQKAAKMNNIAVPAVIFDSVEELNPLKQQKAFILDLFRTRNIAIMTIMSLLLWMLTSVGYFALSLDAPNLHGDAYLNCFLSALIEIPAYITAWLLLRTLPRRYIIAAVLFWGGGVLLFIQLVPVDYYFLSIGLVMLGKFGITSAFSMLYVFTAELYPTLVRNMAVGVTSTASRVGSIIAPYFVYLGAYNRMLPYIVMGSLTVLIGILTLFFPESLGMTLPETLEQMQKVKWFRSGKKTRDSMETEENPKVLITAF
Chain of UniProt Q29437 (whole entry, looked up): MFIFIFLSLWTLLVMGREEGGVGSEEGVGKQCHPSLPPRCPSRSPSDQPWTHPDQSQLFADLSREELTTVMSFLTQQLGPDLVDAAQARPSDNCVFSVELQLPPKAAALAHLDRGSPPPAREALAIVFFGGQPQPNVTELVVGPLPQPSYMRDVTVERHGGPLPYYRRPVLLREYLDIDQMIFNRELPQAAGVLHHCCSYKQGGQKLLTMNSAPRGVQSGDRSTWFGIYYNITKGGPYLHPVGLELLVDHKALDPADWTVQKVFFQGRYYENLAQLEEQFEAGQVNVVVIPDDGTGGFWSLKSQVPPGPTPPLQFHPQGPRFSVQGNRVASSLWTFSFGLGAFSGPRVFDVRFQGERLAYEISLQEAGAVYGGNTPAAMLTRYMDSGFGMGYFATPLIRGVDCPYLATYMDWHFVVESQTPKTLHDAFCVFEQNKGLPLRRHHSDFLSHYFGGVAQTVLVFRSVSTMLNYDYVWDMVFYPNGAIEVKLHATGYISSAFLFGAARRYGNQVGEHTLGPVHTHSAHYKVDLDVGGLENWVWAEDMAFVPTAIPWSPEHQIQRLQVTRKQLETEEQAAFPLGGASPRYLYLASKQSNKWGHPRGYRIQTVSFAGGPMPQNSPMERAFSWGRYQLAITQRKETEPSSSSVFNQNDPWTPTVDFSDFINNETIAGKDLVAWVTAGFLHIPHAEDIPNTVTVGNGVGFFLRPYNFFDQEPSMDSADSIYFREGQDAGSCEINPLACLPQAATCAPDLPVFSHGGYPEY

| Substance | substrate | pH | temperature | notes | together with | Km |
| --- | --- | --- | --- | --- | --- | --- |
| B1 (enzyme) | NC(=O)c1ccc[n+]([C@@H]2O[C@H](COP(=O)(O)OP(=O)(O)OC[C@H]3O[C@@H](n4cnc5c(N)ncnc54)[C@H](O)[C@@H]3O)[C@@H](O)[C@H]2O)c1 | pH 7 | 65 °C | cofactor varied |  | 186 µM |
| SLC22A4 (Homo sapiens, UniProt Q9H015) | C[N+](C)(C)[C@@H](Cc1cnc([Se][Se]c2ncc(C[C@@H](C(=O)[O-])[N+](C)(C)C)[nH]2)[nH]1)C(=O)[O-] |  |  | not purified |  | 13 µM |
| B2 (POLK W214Y/W392H/Y50W) | Nc1ccn([C@H]2C[C@H](O)[C@@H](COP(=O)(O)OP(=O)(O)OP(=O)(O)O)O2)c(=O)n1 | pH 7.5 | 23 °C | MgCl2 5 mM | G template | 0.67 µM |
| B3 (LYPLA1) | CN(C)c1ccc(/N=N/c2ccc(C(=O)NCCCn3cc(CCCCCCCCCCCCCCCC(=O)OC[C@H](NC(=O)c4cc5ccc(O)cc5oc4=O)C(=O)N4CCOCC4)nn3)cc2)cc1 | pH 7.4 | 37 °C |  |  | 19.1 µM |
| B4 (GTPBP3 N259A) | Nc1nc2c(ncn2[C@@H]2O[C@H](COP(=O)(O)OP(=O)(O)OP(=O)(O)O)[C@@H](O)[C@H]2O)c(=O)[nH]1 | pH 8 | 37 °C | KCl 300 mM |  | 11.4 µM |
| B5 (sacB S173A/S422A) | OC[C@H]1O[C@@](CO)(O[C@H]2O[C@H](CO)[C@@H](O)[C@H](O)[C@H]2O)[C@@H](O)[C@@H]1O | pH 6.6 |  |  |  | 7900 µM |
| B6 (BaiA2) | C[C@H](CCC(=O)SCCNC(=O)CCNC(=O)[C@H](O)C(C)(C)COP(=O)(O)OP(=O)(O)OC[C@H]1O[C@@H](n2cnc3c(N)ncnc32)[C@H](O)[C@@H]1OP(=O)(O)O)[C@H]1CC[C@H]2[C@@H]3[C@H](O)C[C@@H]4CC(=O)CC[C@]4(C)[C@H]3CC[C@]12C | pH 8.7 | 37 °C |  | NADH | 1.1 µM |
| B7 (protein) | COc1cc(-c2oc3cc(O)cc(O)c3c(=O)c2O)ccc1O | pH 7.5 | 35 °C | apparent | UDP-glucose | 663 µM |
| B8 (pol D141A/E143A) | Nc1nc2c(ncn2[C@H]2C[C@H](O)[C@@H](COP(=O)(O)OP(=O)(O)OP(=O)(O)O)O2)c(=O)[nH]1 | pH 8 | 55 °C |  |  | 4 µM |
| B9 (Paox H64Q) | CC(=O)NCCCNCCCCNCCCN | pH 10 | 30 °C |  |  | 53 µM |
| B10 (GNS) | CC(=O)N[C@H]1[C@@H](Oc2ccc3c(C)cc(=O)oc3c2)O[C@H](COS(=O)(=O)O)[C@@H](O)[C@@H]1O | pH 5.6 | 37 °C |  | lead acetate | 4000 µM |
| B11 (enzyme C48S) | Cc1nc2c(=O)[nH]c(=O)nc-2n(C[C@H](O)[C@H](O)[C@H](O)CO)c1C | pH 7.2 | 37 °C | apparent |  | 1.1 µM |
| Plasma amine oxidase (Bos taurus, UniProt Q29437) | CN(C)CCOc1ccc2cc(CN)ccc2c1 | pH 7.2 | 30 °C |  |  | 0.202 µM |
| enzyme (Tanacetum cinerariifolium, UniProt H6U1I8) | CC/C=C\CC1=C(C)[C@@H](O)CC1=O | pH 7.5 | 25 °C |  |  | 822 µM |

Some of these lines once more:
| Substance | substrate | pH | temperature | notes | together with | Km |
| --- | --- | --- | --- | --- | --- | --- |
| enzyme (Tanacetum cinerariifolium, UniProt H6U1I8) | CC/C=C\CC1=C(C)[C@@H](O)CC1=O | pH 7.5 | 25 °C |  |  | 822 µM |
